Experimental data collected from several papers.
A part holds a random share of what one study measured. Substitutions count along the parent as printed.

Set 1
Target: RNA binding protein fox-1 homolog 2, RRM domain, GST-SBP tag (RBFOX2, Homo sapiens, UniProt O43251-10, residues 100-194)
Technique: RNA Bind-n-Seq
Form: RNA
Matrix: in vitro
Tested at: 365 nM
Notes: natural RNA segment, single round, ends assumed
Baseline: no-protein control
Reading: higher = stronger binding
Residues (chain): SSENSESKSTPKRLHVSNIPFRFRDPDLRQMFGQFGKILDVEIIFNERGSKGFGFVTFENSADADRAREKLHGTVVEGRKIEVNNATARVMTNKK
Strand	RBNS enrichment (R)
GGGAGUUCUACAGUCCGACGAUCGCUUUUUCAUCAAUGGAGAAAUGAAAGGAAAACACAAGCAAGAAAAAAGUUAACUUGUAUUAUGUAUUUUUACUACACUUUUCUUAAAAAUAGAGCAUUGGGAAAACUCUUGGAAUUCUCGGGUGCCAA	0.38
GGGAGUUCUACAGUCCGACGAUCAGCACUGCUCCGUAUAUAAGUUAAUUUGUAAAUCCGGAGCAGACGGCAUGCUAAGUCCUGUAAUUCCCUCUAACAUUGAGUCAGAUACAUCAUGGGACAUCAUGGGAUGGUGGAAUUCUCGGGUGCCAA	0.667
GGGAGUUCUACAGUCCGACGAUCAGCCUUGUGAGUGCAAUAGGGGACUCUUAAAGCUCCAGCCACCAAACUACAUGCAUCUGUGAAAACAUGUGUAUUUAUGAAGGUGGACUUGAAGCUGCCCAGGAUUUUAAUGGAAUUCUCGGGUGCCAA	0.242
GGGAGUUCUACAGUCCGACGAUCCCUGCAUGGCUACACACCUGGCUCAGUGCCUCCUCCAGAUCCCCUCCUGAGGCUGCCCCAAGGCCUACGGGUUAAAGCCAAUAGCUGCUCACAUGCAACAACGGAAGGAGUGGAAUUCUCGGGUGCCAA	1.83
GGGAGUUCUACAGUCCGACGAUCUUAUGUGUUCAUUGAAUUUGACUGACAUAGUUAAAAACUUAAGGUUUAUUUUAGACUUUCAAGGAAACAAAAGACUUUAGAGUCCUCUCUCUGUAAUUCUGCCCCACUCAUGGAAUUCUCGGGUGCCAA	0.54
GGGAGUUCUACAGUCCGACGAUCUUAUAUUCCUUUUCCCAGGAAAGAAGCAUUUCUGAUACUUUCUGUCAAAAAUCAAUAUGCAGAAUGGAUUUGCAAUAAAAGGUUUCCUAAAAUGGUCCUUUGUGCGUGGCUGGAAUUCUCGGGUGCCAA	0.462
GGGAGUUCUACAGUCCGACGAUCUGUGAUGGCUCUUUAAGAAUUGGGUUUGACCAAAGUUCUCUUUGUUUUCAGGGAAAACUAUAUAAAAGCUUUCUGAGCCACAGCCUUUUAAAAGGGGAAAGGCUAAUAGUUGGAAUUCUCGGGUGCCAA	0.462
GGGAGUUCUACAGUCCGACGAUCAAUGGUUUUGCUUUGUAUUUUAUAGCUUGUUACCCUUAGGUAGGUAACAUCUUACAUUCUGUUUUCUUCCAGUCUUUGCAGUAUUCACUAGAGGUUCCCUUUGCAUGUUGUGGAAUUCUCGGGUGCCAA	64.6
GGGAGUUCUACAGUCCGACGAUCUGACUUUUUCUUAAGUAGCUAAAGACCGAGAGUAUACUAUCUUUAGGGAUAGUCAUUUCUCAAAUGAGUUCUCUAAUAGAGAUUUUGUUCCUACAAUGUAGUCUGCACUGUGGAAUUCUCGGGUGCCAA	0.298
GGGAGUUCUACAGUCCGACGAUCAGUUCUUAAUUUUAAACUGUCAGUUCUUGAGAUAUACCGUGUGAAGCUAUUGUCAGCUUCUCUAUUUCAAAAUGCAAUCAGCAUAUAACUAUAUUGAUAUUAGAAGAUAUUGGAAUUCUCGGGUGCCAA	0.429
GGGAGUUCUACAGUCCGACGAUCCUACCCUUGCUCACUGACUUCCUGUUGUAACACACUUUCCUUACGGAGCCUGGCUGUUUCACAGUAUUUCAUGAAUUUACCCACACAGGUGUGAUCCUCCUUGAGCAUUGUGGAAUUCUCGGGUGCCAA	0.279
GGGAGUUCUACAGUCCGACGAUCGACAGACAUCAAGUGCCAGAUGUUGUCUGAACUAAUCGAGCACUUCUCACCAAACUUCAUGUAUAAAUAAAAUACAUAUUUUUAAAACAAACCAAUAAAUGGCUUACAUGUGGAAUUCUCGGGUGCCAA	0.635

Set 2
Target: CCND2, cyclin fold, Cln2 fusion (human)
Technique: yeast growth competition, sequencing
Matrix: yeast
Notes: weak parent motif
Baseline: not given
Reading: higher = stronger binding
Starting sequence: SCAPER docking peptide (human); SNARRSLNFGGST
Variant	normalised enrichment score
QNARRSLNFGGST [S1Q]	0.391
SNARMSLNFGGST [R5M]	0.63
SNARHSLNFGGST [R5H]	0.0876
SNACRSLNFGGST [R4C]	0.882
SNARRSLNFGGLT [S12L]	0.566
SNARRSLRFGGST [N8R]	-0.062
SNARRSDNFGGST [L7D]	0.391
SNAHRSLNFGGST [R4H]	0.0201
SNARRSLNFGEST [G11E]	0.159
SNARRKLNFGGST [S6K]	1.19
SNARTSLNFGGST [R5T]	0.0779
SNHRRSLNFGGST [A3H]	0.286
SNARRSLNFGWST [G11W]	0.0458
SNARRSLNFGGQT [S12Q]	0.169
SNARRSLNFGNST [G11N]	0.293
SNARRNLNFGGST [S6N]	0.328
SNARRSLNFGMST [G11M]	0.304
SNARRFLNFGGST [S6F]	0.977
SAARRSLNFGGST [N2A]	0.606
SNARRSLNFGRST [G11R]	-0.118
SNAARSLNFGGST [R4A]	0.316
SNARRSLNFKGST [G10K]	0.406
SNKRRSLNFGGST [A3K]	0.109
SNARRSLNFGYST [G11Y]	0.153
SNARRSLKFGGST [N8K]	0.433

Set 3
Target: UBE2J1 UBC core domain (UniProt Q9Y385)
Chain of UniProt Q9Y385 (whole entry, looked up): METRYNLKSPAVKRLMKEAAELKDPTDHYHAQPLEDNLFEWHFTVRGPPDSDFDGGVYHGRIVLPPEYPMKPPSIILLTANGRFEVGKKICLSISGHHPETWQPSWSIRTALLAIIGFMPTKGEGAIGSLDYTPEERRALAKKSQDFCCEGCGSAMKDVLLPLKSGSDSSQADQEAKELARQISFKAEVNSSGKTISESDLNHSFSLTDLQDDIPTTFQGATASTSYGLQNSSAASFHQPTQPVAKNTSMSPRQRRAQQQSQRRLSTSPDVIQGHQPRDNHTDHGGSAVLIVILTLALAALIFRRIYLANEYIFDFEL
Technique: yeast two-hybrid
Matrix: yeast
Notes: mostly zero background
Baseline: not given
Reading: higher = stronger interaction
B1: MEX3B RING domain (UniProt Q6ZN04); chain SGLRRKGSRDCSVCFESEVIAALVPCGHNLFCMECANRICEKSEPECPVCHTAVTQAIRIF
B2: MYCBP2 RING domain (UniProt O75592); chain TSLKQDADDMCMICFTEALSAAPAIQLDCSHIFHLQCCRRVLENRWLGPRITFGFISCPICKNKINHIVLKD
B3: RNF166 RING domain (UniProt Q96A37); chain GDSGLEAQYTCPICLEVYHRPVAIGSCGHTFCGECLQPCLQVPSPLCPLCRLPFDPKKVDK
B4: RNF187 RING domain (UniProt Q5TA31); chain ALPAGPAEAACALCQRAPREPVRADCGHRFCRACVVRFWAEEDGPFPCPECADDCWQRAVEP
B5: RNF152 RING domain (UniProt Q8N8N0); chain ETLSQDSLLECQICFNYYSPRRRPKLLDCKHTCCSVCLQQMRTSQKDVRCPWCRGVTKLPPGFS
B6: TRIM26 RING domain (UniProt Q12899); chain PLRSLEEEVTCSICLDYLRDPVTIDCGHVFCRSCTTDVRPISGSRPVCPLCKKPFKKENIRP
B7: ANAPC11 RING domain (UniProt Q9NYG5); chain GICRMAFNGCCPDCKVPGDDCPLVWGQCSHCFHMHCILKWLHAQQVQQHCPMCRQEWKFKE
B8: TRIM37 RING domain (UniProt O94972); chain SVESIAEVFRCFICMEKLRDARLCPHCSKLCCFSCIRRWLTEQRAQCPHCRAPLQLRELVN
B9: TRIM60 RING domain (UniProt Q495X7); chain ALVNLQEESSCPICLEYLKDPVTINCGHNFCRSCLSVSWKDLDDTFPCPVCRFCFPYKSFRR
B10: RNF2 RING domain (UniProt Q99496); chain SPRSLHSELMCPICLDMLKNTMTTKECLHRFCADCIITALRSGNKECPTCRKKLVSKRSLR
B11: RNF31 RING domain (UniProt Q96EP0); chain AFLRRLLAQECAVCGWALPHNRMQALTSCECTICPDCFRQHFTIALKEKHITDMVCPACGRPDLTDDTQLL
B12: TRIM31 RING domain (UniProt Q9BZY9); chain FVNKLQEEVICPICLDILQKPVTIDCGHNFCLKCITQIGETSCGFFKCPLCKTSVRKNAIRF
Molecule	lacZ reporter activity
B1 (MEX3B RING domain)	0
B2 (MYCBP2 RING domain)	0
KPDKMEETLTCIICQDLLHDCVSLQPCMHTFCAACYSGWMERSSLCPTCRCPVERICKNH (CHFR RING domain (UniProt Q96EP1))	0
B3 (RNF166 RING domain)	0
B4 (RNF187 RING domain)	0
B5 (RNF152 RING domain)	0
B6 (TRIM26 RING domain)	0
B7 (ANAPC11 RING domain)	0
LDAASGHPLVCPLCHGQYERPCLLDCFHDFCTGCLRGRATDGRLSCPLCQHQTLVKGPSG (Rnf207 RING domain (UniProt Q3V3A7))	0
YCEMGSTFQLCKICAENDKDVKIEPCGHLMCTSCLTAWQESDGQGCPFCRCEIKGTEPII (CBLB RING domain (UniProt Q13191))	0
B8 (TRIM37 RING domain)	0
B9 (TRIM60 RING domain)	0
AEADPLGRFTCPVCLEVYEKPVQVPCGHVFCSACLQECLKPKKPVCGVCRSALAPGVRAV (RNF114 RING domain (UniProt Q9Y508))	0
B10 (RNF2 RING domain)	0
B11 (RNF31 RING domain)	0
B12 (TRIM31 RING domain)	0

Set 4
Target: ABI1, truncated, D143A, DHFR fusion (Arabidopsis thaliana)
Technique: DHFR PCA, deep sequencing
Matrix: yeast
Notes: methotrexate growth selection, single substitutions
Added: (+)-ABA 17 µM
Baseline: wild-type fitted maximum
Reading: higher = stronger binding
Starting sequence: PYL1, truncated, DHFR fusion (Arabidopsis thaliana); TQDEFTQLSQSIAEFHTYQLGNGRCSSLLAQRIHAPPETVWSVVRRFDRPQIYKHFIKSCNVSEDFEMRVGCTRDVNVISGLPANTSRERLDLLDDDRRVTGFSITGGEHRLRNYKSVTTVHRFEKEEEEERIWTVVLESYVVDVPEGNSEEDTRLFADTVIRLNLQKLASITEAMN; partner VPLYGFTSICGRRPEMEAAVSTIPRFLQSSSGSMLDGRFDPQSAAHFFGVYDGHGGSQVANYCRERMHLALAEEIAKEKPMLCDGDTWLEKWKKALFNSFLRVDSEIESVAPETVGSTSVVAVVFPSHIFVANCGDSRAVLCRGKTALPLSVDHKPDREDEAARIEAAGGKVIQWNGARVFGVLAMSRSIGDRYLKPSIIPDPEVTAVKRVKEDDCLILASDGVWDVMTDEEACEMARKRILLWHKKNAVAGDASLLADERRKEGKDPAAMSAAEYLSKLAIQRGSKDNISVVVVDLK
Variant	relative binding score [%]
T173R	3.1
V62L	79.7
Q10L	68.1
K54T	-12.8
L94W	71.3
E127Q	95
E139V	77.3
T120K	1.91
L94A	2.35
L8F	87.8
M176Y	82.3
S104E	3.63
D48T	3.12
G102L	-4.51
R24W	25.9
P36W	33.5
E64M	70.1
P146L	13.9
C72I	72.7
I52T	87.4
Y115K	8.12
I162A	-0.213
K126W	74.3
V40R	0.995
T39W	60.9

A few entries again (set 2):
Variant	normalised enrichment score
SNARTSLNFGGST [R5T]	0.0779
SAARRSLNFGGST [N2A]	0.606
SNAARSLNFGGST [R4A]	0.316
SNARRNLNFGGST [S6N]	0.328
SNARRSLNFGYST [G11Y]	0.153
